Measurements gathered from unrelated publications.
Each numbered part is a random draw from the data of one study; scales do not carry over between parts.
Sequence of UniProt P51617 (whole entry, looked up): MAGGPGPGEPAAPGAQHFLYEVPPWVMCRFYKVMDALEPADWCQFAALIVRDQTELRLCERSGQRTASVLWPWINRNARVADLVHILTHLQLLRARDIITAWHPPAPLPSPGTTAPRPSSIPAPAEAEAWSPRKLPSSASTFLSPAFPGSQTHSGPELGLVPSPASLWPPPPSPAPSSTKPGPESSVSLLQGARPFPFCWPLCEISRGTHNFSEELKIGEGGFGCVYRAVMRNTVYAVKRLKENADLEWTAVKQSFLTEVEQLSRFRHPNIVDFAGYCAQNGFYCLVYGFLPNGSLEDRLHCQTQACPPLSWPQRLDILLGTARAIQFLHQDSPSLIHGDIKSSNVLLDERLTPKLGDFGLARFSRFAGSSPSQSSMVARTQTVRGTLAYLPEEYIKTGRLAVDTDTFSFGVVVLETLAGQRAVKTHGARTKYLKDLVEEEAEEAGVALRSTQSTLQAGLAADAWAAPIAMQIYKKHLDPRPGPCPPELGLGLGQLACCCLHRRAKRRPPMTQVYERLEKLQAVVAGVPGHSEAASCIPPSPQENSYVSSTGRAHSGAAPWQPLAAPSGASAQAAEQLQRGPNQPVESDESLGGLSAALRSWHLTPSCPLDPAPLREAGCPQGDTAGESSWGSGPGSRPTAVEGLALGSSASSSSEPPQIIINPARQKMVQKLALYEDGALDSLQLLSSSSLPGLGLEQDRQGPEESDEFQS

Block 1
Target: Prothrombin, mature alpha-thrombin (F2, Homo sapiens, UniProt P00734)
Method: aptamer microarray, sandwich
Molecule type: DNA with 2'F-ANA
Medium: in vitro
Tested at: 200 nM
Notes: whole 15-mer aptamer, many near background
With: Cy3 exosite-II aptamer, 400 nM
Reading: higher = stronger binding
Measurement: mean fluorescence intensity
Oligonucleotide: GGTTGGTGTGGTTGG
2'F-ANA at 1 2 3 4 5 7 8 9 12 14 15: 59.3 a.u.
2'F-ANA at 1 2 3 5 6 7 8 9 10 11 12 14 15: 52.2 a.u.
2'F-ANA at 1 3 5 7 8 13: 75.1 a.u.
2'F-ANA at 1 2 4 5 9 10: 47.3 a.u.
2'F-ANA at 1 3 5 6 8 9 12 13 14: 99.2 a.u.
2'F-ANA at 1 4 5 6 9 11 13: 48.2 a.u.
2'F-ANA at 1 2 3 5 9 11 12 14: 110 a.u.
2'F-ANA at 1 4 6 8 9 14: 45.3 a.u.

Block 2
Target: Runt-related transcription factor 1, full length (RUNX1, Homo sapiens, UniProt Q01196-8, residues 1-480)
Method: protein-binding microarray
Molecule type: hairpin DNA
Medium: in vitro
Tested at: not given
Notes: whole hairpin DNA, median over replicate spots
Relative to: not given
Reading: higher = stronger binding
Measurement: median fluorescence
GAGGCCTGTTGTGGTCGGCCTCCTGGCCGACCACAACAGGCCTCACACTC (5mC at 16 28): 2860 a.u.
GAGGCCTCGCGCGGTTGGCCTCCTGGCCAACCGCGCGAGGCCTCACACTC (5mC at 36): 2380 a.u.
GAGGCCTGTTGTCGTTGGCCTCCTGGCCAACGACAACAGGCCTCACACTC (5mC at 13 31): 1770 a.u.
GAGGCCTGTTCGGGTTGGCCTCCTGGCCAACCCGAACAGGCCTCACACTC (5mC at 11 33): 1720 a.u.
GAGGCCCAACGGCAACAGCCTCCTGGCTGTTGCCGTTGGGCCTCACACTC (5mC at 10): 1740 a.u.
GAGGCCGAACCGCAACAGCCTCCTGGCTGTTGCGGTTCGGCCTCACACTC: 4460 a.u.
GAGGCCTGGCGCGGTTGGCCTCCTGGCCAACCGCGCCAGGCCTCACACTC (5mC at 36): 2430 a.u.
GAGGCCCAAGCGCAACAGCCTCCTGGCTGTTGCGCTTGGGCCTCACACTC: 1740 a.u.

Further values, each from its own experiment
PPFIA1 (Homo sapiens, UniProt Q13136)
cross-linked residues (CAPRIN1 (Homo sapiens, UniProt Q14444); cross-linking MS; cell fractions; with: DSSO): K213 to K234

CCCCN(CCCC)C(=O)CN1C[C@@H](c2cc(OC)c3c(c2)OCO3)[C@H](C(=O)O)[C@H]1CC(C)(C)CCC
remaining binding (IRAK1 (Homo sapiens, UniProt P51617); cell-free assay, competition with immobilised ligand; 1 µM): 76.6%

H2BC21 (Homo sapiens, UniProt Q16778)
interaction screen (H2AC18 (Homo sapiens, UniProt Q6FI13); cross-linking MS; hits only): cross-linked

SNRPC (Homo sapiens, UniProt P09234)
cross-linked residues (SNRPD3 (Homo sapiens, UniProt P62318); cross-linking MS; cell fractions; with: DMTMM): K22 to E14

H2AC11 (Homo sapiens, UniProt P0C0S8)
interaction screen (H3-4 (Homo sapiens, UniProt Q16695); cross-linking MS; hits only): cross-linked

For quick reference, copied from above (block 2):
GAGGCCTGGCGCGGTTGGCCTCCTGGCCAACCGCGCCAGGCCTCACACTC (5mC at 36): 2430 a.u.
GAGGCCCAAGCGCAACAGCCTCCTGGCTGTTGCGCTTGGGCCTCACACTC: 1740 a.u.
